Results gathered from unrelated publications.
Every numbered part comes from another study and shows a few of its results, in no order.

Study 1
Target: RNA binding protein fox-1 homolog 2, RRM domain, GST-SBP tag (RBFOX2, Homo sapiens, UniProt O43251-10, residues 100-194)
Technique: RNA Bind-n-Seq
Form: RNA
Matrix: in vitro
Tested at: 365 nM
Setting: natural RNA segment, single round, ends assumed
Baseline: no-protein control
Reading: higher = stronger binding
Residues (chain): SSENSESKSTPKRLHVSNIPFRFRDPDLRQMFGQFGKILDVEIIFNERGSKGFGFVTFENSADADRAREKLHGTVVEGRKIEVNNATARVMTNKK
For `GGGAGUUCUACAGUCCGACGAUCCUGAUUAGAACAGUCCAACACAGUCCGACCUCACUCAAUACCCACAACCAUCGAAAAUGGAUUCUUAGUACCAGACAAUCCCAGUAAUGAAGGUUUAGUUUCCUUGAAGGUGGAAUUCUCGGGUGCCAA`, “RBNS enrichment (R)” read 0.568.
`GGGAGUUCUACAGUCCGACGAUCUUUAGCAGAGCCUUUAGUGUUAACACCAGUGGCGAGGAGCAUUGCAUAUUCUCUGUCAGCAGCAGCACUCCCACACCAGGUGGUUCUGGGCUCUCUGUAGGCUGGUCCUAUGGAAUUCUCGGGUGCCAA`: “RBNS enrichment (R)” 0.332.
For `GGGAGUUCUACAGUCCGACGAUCCUUAUAAACUAACGGGGACCGAGGAAUGUAGGGAGUGUUAAAGGAAAGCUAACUUCUAACUUCCUUCCGCUGAGAUGUCUUCUGCUGCCUCAUUUGCAAGAUGUGCAAGCUGGAAUUCUCGGGUGCCAA`, “RBNS enrichment (R)” read 0.367.
`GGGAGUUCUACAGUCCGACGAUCGAAGAGUUGGGGCACAGCCAGUUCUGAAUGUUGGUGGAGGGUGUAGUGGCUUUUUGGCUCAGCAUCCAGAAACACCAAACCAGGCUGGCUAAACAAGUGGCCGCGUGUAAUGGAAUUCUCGGGUGCCAA` — result for “RBNS enrichment (R)”: 0.314.
Under “RBNS enrichment (R)”, `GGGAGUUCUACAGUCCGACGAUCACAACUCUGGGCUCUGUUCAGCACUGUCUUCUGUCAGAGGUGCCUUUUCACAAGUAUGGCGGCUUACCACGAGAUAGCUACUGGGUAAGCAAAGCCUGGGACAUUUGCAAUGGAAUUCUCGGGUGCCAA` is recorded as 0.28.
Under “RBNS enrichment (R)”, `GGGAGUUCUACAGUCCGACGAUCGCUUCGCGCCCUUCUCGGGAGGCAGCUUUUUCGAGCACGAGGGCCGCCCGUUGUGCGAGAACCACUUCCACGCACGACGCGGCUCGCUGUGCGCCACGUGUGGCCUCCCUUGGAAUUCUCGGGUGCCAA` is recorded as 0.312.
`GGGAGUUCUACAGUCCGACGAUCAACAGCUUUACUUCAAAAGCAUGUGCCUCUGGUAAAUUAUCCAUCACUUUUGUUUUAAAGUGGUCCCUCCAAGAAUAAUGUGGCAUACACAGUGGGUUUGGUUGUAAGGCUGGAAUUCUCGGGUGCCAA`: “RBNS enrichment (R)” 0.939.
`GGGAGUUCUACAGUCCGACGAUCUCUUCAGAAAUAUUAUUUGACCUACAGUAUGUUUAAAUCAAUUUAAUAAAAUCACUUUAUAACAGGACCCUAUGUUUCCUGUGUGGUGUAUGAGUUCAGUAGUCCUGGCGUGGAAUUCUCGGGUGCCAA`: “RBNS enrichment (R)” 0.494.
`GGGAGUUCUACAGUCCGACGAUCUGGCACUGGGAACAUCCUACGCAGGGACAACCUCCAAAAUUAAUGGGUGAACAUGGUUUUUUUGGAAUCAACUGAGAUAAUGCUAUUUCAAUAGCGGCUGGCUUUUUGUGUGGAAUUCUCGGGUGCCAA`: “RBNS enrichment (R)” 0.799.
`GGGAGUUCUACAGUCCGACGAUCCCUGGGCAGGGUCUGUGGCUGCGCCCCUCAGGCCAGCAGUUGAGGUCCAUCGGGCUGGCCCCAGCCCAUCUGCUGGCAUCAGUACCUGGUGUUGGGACAGCAGGAUAGGGUGGAAUUCUCGGGUGCCAA`: “RBNS enrichment (R)” 0.43.
Under “RBNS enrichment (R)”, `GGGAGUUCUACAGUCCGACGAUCACUAACUAGGGCUCCAGUCAGUAUUCCCCUGGCCGGCUUCCCAGAUGCCCUGGACGGCACUCUGUUCCUUAAAGUCCAGUUCCACCCUGACGUCCACAGAGGCAGCACGGUGGAAUUCUCGGGUGCCAA` is recorded as 0.34.
For `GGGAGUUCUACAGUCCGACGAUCCCCAAGUCACUACAGUUGGUUCUAUUGAAGCCAGUCUUUAAGAAACCUGGGUUAAAGACACCAGCACUUCUGCUUGCUGGGCUGGCUGGACCUGUGAAGCCAUGGGCAGGUGGAAUUCUCGGGUGCCAA`, “RBNS enrichment (R)” read 1.17.

Study 2
Target: Histone acetyltransferase KAT6A, winged helix 2, GST fusion (KAT6A, Homo sapiens, UniProt Q92794, residues 85-181)
Technique: protein binding microarray
Form: double-stranded DNA, one strand shown
Matrix: in vitro
Tested at: not given
Setting: 8-mer, flanks averaged, mean of 2 arrays, mostly near background
Baseline: not given
Reading: higher = stronger binding
Target sequence (chain): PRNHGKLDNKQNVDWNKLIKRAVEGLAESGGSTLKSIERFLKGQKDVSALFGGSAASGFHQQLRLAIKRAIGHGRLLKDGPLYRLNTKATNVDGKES
`ACACTATC` has an E-score of 0.00265.
`CCGCTCAC` gave an E-score of 0.0492.
For `ATCCTCTC`, the E-score was 0.0315.
`AGTAGTAC` has an E-score of -0.135.
For `CTGGTGTC`, the E-score was 0.123.
`CAATCATC` gave an E-score of -0.144.
With `ACATCGAC` the E-score was -0.0179.
The E-score of `CGCCATGC` is reported as 0.204.
`AACTCCCA` gave an E-score of -0.0793.
`AGACGAAT` has an E-score of 0.0206.
With `ATGGATGC` the E-score was -0.11.
`GAACCTTC` has an E-score of 0.0329.
The E-score of `AAATAAGC` is reported as 0.0101.
With `AAACTATA` the E-score was -0.0894.
`CCACGTAA` gave an E-score of -0.261.
`CAAGTCAG` has an E-score of 0.0043.
With `ATATCCCC` the E-score was -0.0487.
`CGAAGGAG` has an E-score of -0.0621.
The E-score of `CTCGGTCC` is reported as 0.0254.
`TATTTGCA` gave an E-score of -0.0382.
`ACATACAG` has an E-score of -0.142.
The E-score of `CTTTTACC` is reported as 0.106.
`GAGCTGAC` gave an E-score of 0.15.
`GTCATTAA` gave an E-score of 0.0157.
With `AGGCTGCG` the E-score was 0.118.

Study 3
Target: Centromere-binding protein 1, full length, N-terminal tag (CBF1, Saccharomyces cerevisiae, UniProt P17106, residues 1-351)
UniProt P17106, sequence (whole entry, looked up): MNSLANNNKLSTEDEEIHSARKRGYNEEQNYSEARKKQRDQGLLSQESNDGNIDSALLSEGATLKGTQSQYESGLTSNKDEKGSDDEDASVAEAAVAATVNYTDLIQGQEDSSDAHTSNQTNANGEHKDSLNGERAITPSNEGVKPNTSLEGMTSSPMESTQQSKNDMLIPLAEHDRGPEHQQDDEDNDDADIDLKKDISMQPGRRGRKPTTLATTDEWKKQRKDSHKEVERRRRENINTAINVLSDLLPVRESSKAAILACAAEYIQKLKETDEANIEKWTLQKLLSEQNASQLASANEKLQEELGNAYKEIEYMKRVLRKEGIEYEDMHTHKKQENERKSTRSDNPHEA
Technique: protein-binding microarray
Form: double-stranded DNA, one strand shown
Matrix: in vitro
Tested at: 0.8 µM
Setting: whole 60-bp probe, no competitor
Reading: higher = stronger binding
`GAACGTGCGACGACTCATGTGTGTTAGATTGGGTAGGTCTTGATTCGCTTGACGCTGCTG` has a fluorescence intensity of 562 a.u.
The fluorescence intensity of `TGTACGAAGCTATGTCATGTGAGTATAGTAGTTAGGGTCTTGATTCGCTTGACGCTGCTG` is reported as 1670 a.u.
`CTAACTTGAAAGAATCTCACCTGGAGAATGGGTTTCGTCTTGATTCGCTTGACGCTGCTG` gave a fluorescence intensity of 498 a.u.
`CTACGAATACGTTTTCTCATGACCATTGTACTATTCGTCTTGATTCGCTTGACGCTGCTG` gave a fluorescence intensity of 555 a.u.
`GAAGTGCGGAAATGCATCACCGCCTAGCGACTCTAGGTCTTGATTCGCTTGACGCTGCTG` gave a fluorescence intensity of 486 a.u.
For `CCTAACTACTATAAGCTTGTGATATAGCTTCGTACAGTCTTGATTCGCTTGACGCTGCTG`, the fluorescence intensity was 525 a.u.
`GAAATGATCCTGGTTCATGATCAGTACTATGATTAGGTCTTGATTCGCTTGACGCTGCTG` has a fluorescence intensity of 512 a.u.
`CTAAAAGTCATCTGGCACGTTTAATTATCAGAGTTCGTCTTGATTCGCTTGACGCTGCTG` gave a fluorescence intensity of 676 a.u.
`GAAATCATCGTCCACCACGCCCCTTCCTTTTTCTAGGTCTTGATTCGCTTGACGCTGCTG` gave a fluorescence intensity of 527 a.u.
For `CTACAAATTGGTCATCTCACCAGATATGTTATATTCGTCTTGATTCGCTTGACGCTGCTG`, the fluorescence intensity was 563 a.u.
For `GAAACTTTGACCTGTGACATCACGTTGGCTTGGTAGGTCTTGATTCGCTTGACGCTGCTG`, the fluorescence intensity was 1220 a.u.
For `TGTACGAAGCTATATCACGCAATTATAGTAGTTAGGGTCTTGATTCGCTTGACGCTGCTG`, the fluorescence intensity was 571 a.u.
With `CTATGGAGCATGCGTACACGTGTGCGTATTCTATTCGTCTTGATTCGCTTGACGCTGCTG` the fluorescence intensity was 5100 a.u.
`GAACTCCACCATATTAACGTGTTATAGCTAATGTAGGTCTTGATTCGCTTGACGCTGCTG` gave a fluorescence intensity of 547 a.u.
The fluorescence intensity of `CTATCTTTTCTATCTCACCTGTTTATATATTGCTTCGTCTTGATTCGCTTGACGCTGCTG` is reported as 688 a.u.
With `GAATGATATAGTGGTCACCAGAACACTTTCAAATAGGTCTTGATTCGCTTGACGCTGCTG` the fluorescence intensity was 642 a.u.

Study 4
Target: Interferon regulatory factor 7, full length, phosphomimetic (IRF7, Homo sapiens, UniProt Q92985, residues 1-503, S471D/S472D/S475D/S476D/S477D/S483D/S484D/S487D)
UniProt Q92985, sequence (whole entry, unmodified, looked up): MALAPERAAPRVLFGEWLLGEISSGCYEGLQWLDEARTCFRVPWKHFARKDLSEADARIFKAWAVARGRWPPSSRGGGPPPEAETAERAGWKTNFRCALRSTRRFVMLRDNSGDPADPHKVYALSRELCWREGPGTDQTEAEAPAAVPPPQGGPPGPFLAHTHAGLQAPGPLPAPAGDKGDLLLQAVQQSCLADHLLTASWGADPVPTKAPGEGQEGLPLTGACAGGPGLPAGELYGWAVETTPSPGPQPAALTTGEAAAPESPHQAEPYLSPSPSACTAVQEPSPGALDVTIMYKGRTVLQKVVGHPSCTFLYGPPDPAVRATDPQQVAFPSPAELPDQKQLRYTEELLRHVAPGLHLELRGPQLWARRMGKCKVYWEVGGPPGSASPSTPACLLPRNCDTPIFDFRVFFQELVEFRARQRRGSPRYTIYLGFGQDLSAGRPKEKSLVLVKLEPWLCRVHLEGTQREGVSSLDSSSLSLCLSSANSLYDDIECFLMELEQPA
Technique: protein-binding microarray
Form: double-stranded DNA, one strand shown
Matrix: in vitro
Tested at: 2200 nM top
Setting: 60-bp whole probe
Added: salmon DNA 0.4 mg/ml
Baseline: random background probes
Reading: higher = stronger binding
All sequences stand within: GCCTAGCAC … GTCTTGATTCGCTTGACGCTGCTG
`TTAGGTTGCGGTCTCGGTTAGTGCTAG` — result for “fitted relative affinity”: 0.634 z-score.
`TTAGGACTGGACACTGGGCTAGTGCTA` — result for “fitted relative affinity”: -0.952 z-score.
`TCAAATTTACTTTGGTTACTGTGCTAG`: “fitted relative affinity” 0.297 z-score.
`GACGATAGCAGACTGGAGACGTGCTAG`: “fitted relative affinity” -0.234 z-score.
`GACGATGCCAGTTTCGAGACGTGCTAG` — result for “fitted relative affinity”: 3.75 z-score.
`TTAGGACAGCTACTGCTTTAGTGCTAG` — result for “fitted relative affinity”: -0.495 z-score.
`TCACCTTTTCACTTTACACTGTGCTAG`: “fitted relative affinity” 4.36 z-score.
`TTAGAACTGAGTATCGATAAGTGCTAG` — result for “fitted relative affinity”: -0.56 z-score.
`ACATGCTTCGAGATCTCCGAGTGCTAG`: “fitted relative affinity” 1.16 z-score.
`GACGGTTTCATTTTCCTGACGTGCTAG` — result for “fitted relative affinity”: 5.94 z-score.
Under “fitted relative affinity”, `GACGATCTAAGTCTCGAGACGTGCTAG` is recorded as 0.163 z-score.
`GAGGGTTTCCTTTCCCTGACGTGCTAG`: “fitted relative affinity” 2.33 z-score.
`GACGATCTCATTCTCGAGACGTGCTAG` — result for “fitted relative affinity”: 0.81 z-score.
`TTAGGACTGGGGCTGGGTTAGTGCTAG` — result for “fitted relative affinity”: -0.633 z-score.
For `TTACGTATCGGGTTTCGGTTAGTGCTA`, “fitted relative affinity” read 4.91 z-score.
`TTTGCTTTCTTTTTGCACTCGTGCTAG` — result for “fitted relative affinity”: 5.88 z-score.
For `GACGGTTCCCTTGTCCTGACGTGCTAG`, “fitted relative affinity” read 1.36 z-score.
`GACGGTATCGGACTGGGTACGTGCTAG`: “fitted relative affinity” -0.33 z-score.
`GAAAATTTCTTCCTCCCCCTGTGCTAG`: “fitted relative affinity” 1.13 z-score.
Under “fitted relative affinity”, `TTTGGTCTCGGACTGGGTTAGTGCTAG` is recorded as 0.446 z-score.

For quick reference, copied from above (study 3):
The fluorescence intensity of `TGTACGAAGCTATGTCATGTGAGTATAGTAGTTAGGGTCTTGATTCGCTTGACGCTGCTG` is reported as 1670 a.u.
`CTAACTTGAAAGAATCTCACCTGGAGAATGGGTTTCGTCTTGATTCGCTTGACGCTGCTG` gave a fluorescence intensity of 498 a.u.
`CTACGAATACGTTTTCTCATGACCATTGTACTATTCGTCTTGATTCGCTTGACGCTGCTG` gave a fluorescence intensity of 555 a.u.
`GAAGTGCGGAAATGCATCACCGCCTAGCGACTCTAGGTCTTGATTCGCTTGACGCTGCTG` gave a fluorescence intensity of 486 a.u.
For `CCTAACTACTATAAGCTTGTGATATAGCTTCGTACAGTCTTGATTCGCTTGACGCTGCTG`, the fluorescence intensity was 525 a.u.
`GAAATGATCCTGGTTCATGATCAGTACTATGATTAGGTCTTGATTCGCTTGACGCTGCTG` has a fluorescence intensity of 512 a.u.
`CTAAAAGTCATCTGGCACGTTTAATTATCAGAGTTCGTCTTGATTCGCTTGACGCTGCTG` gave a fluorescence intensity of 676 a.u.
`GAAATCATCGTCCACCACGCCCCTTCCTTTTTCTAGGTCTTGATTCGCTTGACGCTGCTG` gave a fluorescence intensity of 527 a.u.
For `CTACAAATTGGTCATCTCACCAGATATGTTATATTCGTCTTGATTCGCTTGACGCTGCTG`, the fluorescence intensity was 563 a.u.
For `GAAACTTTGACCTGTGACATCACGTTGGCTTGGTAGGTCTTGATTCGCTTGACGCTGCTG`, the fluorescence intensity was 1220 a.u.
